Values quoted from earlier work as cited in several papers.
Protocols differ between the studies behind these lines. ± marks the error that the study gave.

SMILES	organism	assay	system	conditions	IC50 [µM]
CC(C)Oc1cc(-n2nc(C(C)(C)C)oc2=O)c(Cl)cc1Cl	Toxoplasma gondii	intracellular growth, inhibitor	wild type Nluc		131 ± 3.9
C=CCCCCC(=O)N(C)[C@H](C(=O)N(C)[C@H](C(=O)N(C)[C@H](C(=O)N(C)[C@@H](C)C(=O)N(C)[C@@H](Cc1ccccc1)C(=O)OC)C(C)C)C(C)C)C(C)C	Leishmania donovani				> 14
c1ccc(CNc2nc(Nc3ccccc3)nc3ccccc23)cc1	Trypanosoma brucei brucei		Squib 427		3.4
C=CCCCCC(=O)N(C)[C@H](C(=O)N(C)[C@H](C(=O)N(C)[C@H](C(=O)N(C)[C@@H](C)C(=O)N(C)[C@@H](Cc1ccccc1)C(=O)O)C(C)C)C(C)C)C(C)C	Leishmania donovani				> 14
c1ccc(-c2ccc(-c3nc4ccccc4[nH]3)cc2)cc1	Trypanosoma brucei brucei		Squib 427		> 32
C=C[C@@]1(C)COC(=O)[C@]12O[C@]1(c3ccccc3)[C@H](C2=O)[C@H]2[C@H]([C@H](C)CCC=C(C)C)CC=C(C)[C@H]21	HIV	viral replication			1.7
C/C=C1\NC(=O)[C@H]2CSSCC/C=C/[C@H](CC(=O)N[C@H](C(C)C)C(=O)N2)OC(=O)[C@H](C(C)C)NC1=O	Trypanosoma brucei	growth	bloodstream form		0.035
CCOC(=O)c1c(C)n(-c2ccccc2)c2ccc(OC(=O)c3cc(OC)c(OC)c(OC)c3)cc12	Trypanosoma brucei brucei		Squib 427		16.2
O=C(NC(c1ccccc1)c1ccc2cccnc2c1O)c1ccccc1 (centres unmarked)	Trypanosoma cruzi	parasite growth, reporter gene	MRC-5 host cells	7 days	< 0.13
N=C(N)c1ccc(N=NNc2ccc(C(=N)N)cc2)cc1	Trypanosoma congolense		IL3000		0.109 ± 0.026
FC(F)(F)c1cccc(CNC2CCN(CCc3ccccc3)CC2)c1	Trypanosoma brucei rhodesiense		STIB 900		1.3
COc1ccc(-c2oc3cc(O)c(OC)c(O)c3c(=O)c2OC)cc1	Trypanosoma cruzi		epimastigotes and trypomastigotes		> 30
N=C(N)c1ccc(OCCCCCOc2ccc(C(=N)N)cc2)cc1	Trypanosoma brucei rhodesiense	cell growth	IL1501		0.029 ± 0.0062
CC(=O)c1ccc(NC(=O)CSc2nc(-c3ccccc3Cl)ns2)cc1	Trypanosoma brucei rhodesiense		STIB 900		> 32
Cc1ccc(C(=O)Nc2ccc(S(=O)(=O)O)c3cc(S(=O)(=O)O)cc(S(=O)(=O)O)c23)cc1NC(=O)c1cccc(NC(=O)Nc2cccc(C(=O)Nc3cc(C(=O)Nc4ccc(S(=O)(=O)O)c5cc(S(=O)(=O)O)cc(S(=O)(=O)O)c45)ccc3C)c2)c1	Trypanosoma evansi	cell growth	Tansui		0.38 ± 0.058
N=C(N)c1cccc(/C=N/N=C(\N)N/N=C/c2cccc(C(=N)N)c2)c1	Trypanosoma brucei	parasite growth			20
Cc1nc2ccccc2c(O)c1CC=C(Cl)Cl	Trypanosoma brucei rhodesiense		STIB 900		> 32
CC1CS(=O)(=O)CCN1/N=C/c1ccc([N+](=O)[O-])o1 (centres unmarked)	Trypanosoma congolense		IL3000		1.06 ± 0.22
COCCN(C)c1ccc(C(=O)Nc2ccccc2)cc1NS(=O)(=O)Cc1ccccc1	Plasmodium falciparum		3D7	72 h, whole cell	0.571
CCOc1ccc(/C=C/c2nc(=O)c3ccccc3o2)cc1	Trypanosoma brucei brucei		Squib 427		> 32
NCCCC(N)(C(=O)O)C(F)F (centres unmarked)	Trypanosoma brucei rhodesiense	cell growth	IL1501		46 ± 17.1
Cn1c(C(=O)NCCCc2c[nH]c(N)n2)cc(Br)c1Br	Pseudomonas aeruginosa	biofilm formation	PA14	50% inhibition	111
Cn1c(=O)n(C)c2cc(CNCCNc3ccnc4cc(Cl)ccc34)ccc21	Trypanosoma brucei brucei		Squib 427		11.5
C=CCCCCCC(=O)N(C)[C@H](C(=O)N(C)[C@H](C(=O)N(C)[C@H](C(=O)N(C)[C@@H](C)C(=O)N(C)[C@@H](Cc1ccccc1)C(=O)O)C(C)C)C(C)C)C(C)C	Leishmania donovani				4.1
CCCCCCCCCCCCCCCCOP(=O)([O-])OCC[N+](C)(C)C	Trypanosoma brucei	parasite growth		in vitro	35.5
Cc1cc2nc(N)[nH]c2cc1C	Pseudomonas aeruginosa	RhlR quorum sensing	PAO1 reporter		12.5
